Assay results pooled from the literature.
Parts stem from different laboratories: compare values within a part only.

Block 1 — method: universal PBM; molecule type: double-stranded DNA, one strand shown; medium: in vitro; concentration: 600 nM; direction: higher = stronger binding
Target: Sal-like protein 4, full length isoform A (SALL4, Homo sapiens, UniProt Q9UJQ4, residues 1-1053)
Chain of UniProt Q9UJQ4 (whole entry, looked up): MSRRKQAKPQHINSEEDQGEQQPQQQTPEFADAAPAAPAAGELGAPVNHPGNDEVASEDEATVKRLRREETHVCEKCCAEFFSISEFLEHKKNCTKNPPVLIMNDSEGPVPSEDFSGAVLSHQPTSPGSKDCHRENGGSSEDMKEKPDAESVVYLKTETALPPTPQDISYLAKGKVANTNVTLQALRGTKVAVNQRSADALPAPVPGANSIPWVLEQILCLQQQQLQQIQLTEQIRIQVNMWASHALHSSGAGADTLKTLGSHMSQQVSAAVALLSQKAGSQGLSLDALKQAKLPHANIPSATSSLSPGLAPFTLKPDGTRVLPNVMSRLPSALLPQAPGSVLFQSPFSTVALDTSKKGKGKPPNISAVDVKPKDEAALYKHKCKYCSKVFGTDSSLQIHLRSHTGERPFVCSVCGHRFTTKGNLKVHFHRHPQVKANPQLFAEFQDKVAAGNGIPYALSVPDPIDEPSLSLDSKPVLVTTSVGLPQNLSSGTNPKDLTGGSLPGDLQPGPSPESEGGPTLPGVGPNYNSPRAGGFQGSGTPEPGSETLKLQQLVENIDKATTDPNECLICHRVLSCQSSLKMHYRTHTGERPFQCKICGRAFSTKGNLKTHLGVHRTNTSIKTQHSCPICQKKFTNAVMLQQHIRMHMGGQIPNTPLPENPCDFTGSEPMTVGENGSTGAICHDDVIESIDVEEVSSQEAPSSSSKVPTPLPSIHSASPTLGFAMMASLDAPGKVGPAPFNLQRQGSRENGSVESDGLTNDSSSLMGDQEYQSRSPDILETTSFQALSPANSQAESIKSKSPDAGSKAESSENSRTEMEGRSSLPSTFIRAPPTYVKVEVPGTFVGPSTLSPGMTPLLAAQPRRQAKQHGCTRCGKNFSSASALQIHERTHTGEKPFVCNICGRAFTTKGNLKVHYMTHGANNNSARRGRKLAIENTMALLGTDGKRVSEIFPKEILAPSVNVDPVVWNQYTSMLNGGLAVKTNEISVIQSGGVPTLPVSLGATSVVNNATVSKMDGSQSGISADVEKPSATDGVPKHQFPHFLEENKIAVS
Notes: 8-mer, flanks averaged, mean of replicates
With `ACACACTG` the E-score was -0.113.
With `ACAGGTAA` the E-score was 0.134.
The E-score of `ATGCACCC` is reported as -0.1.
The E-score of `TATGCGGA` is reported as 0.147.

Block 2 — method: protein binding microarray; molecule type: double-stranded DNA, one strand shown; medium: in vitro; concentration: not given; relative to: not given; direction: higher = stronger binding
Target: Histone acetyltransferase KAT6A, winged helix 1, GST fusion (KAT6A, Homo sapiens, UniProt Q92794, residues 1-85)
Notes: 8-mer, flanks averaged, mean of 2 arrays, mostly near background
Residues (chain): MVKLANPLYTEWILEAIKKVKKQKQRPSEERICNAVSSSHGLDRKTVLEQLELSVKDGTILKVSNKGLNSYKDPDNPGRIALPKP
With `CCCAAGGC` the E-score was 0.0316.
`ATAAACAA` has an E-score of -0.0497.
For `GCAGGCAC`, the E-score was -0.0146.

Block 3 — method: protein-binding microarray; molecule type: double-stranded DNA, one strand shown; medium: in vitro; concentration: 250 nM; notes: 60-bp whole probe; with: salmon DNA 0.4 mg/ml; relative to: random background probes; direction: higher = stronger binding
Target: Interferon regulatory factor 7, full length, phosphomimetic (IRF7, Homo sapiens, UniProt Q92985, residues 1-503, S101K/S471D/S472D/S475D/S476D/S477D/S483D/S484D/S487D)
Chain of UniProt Q92985 (whole entry, unmodified, looked up): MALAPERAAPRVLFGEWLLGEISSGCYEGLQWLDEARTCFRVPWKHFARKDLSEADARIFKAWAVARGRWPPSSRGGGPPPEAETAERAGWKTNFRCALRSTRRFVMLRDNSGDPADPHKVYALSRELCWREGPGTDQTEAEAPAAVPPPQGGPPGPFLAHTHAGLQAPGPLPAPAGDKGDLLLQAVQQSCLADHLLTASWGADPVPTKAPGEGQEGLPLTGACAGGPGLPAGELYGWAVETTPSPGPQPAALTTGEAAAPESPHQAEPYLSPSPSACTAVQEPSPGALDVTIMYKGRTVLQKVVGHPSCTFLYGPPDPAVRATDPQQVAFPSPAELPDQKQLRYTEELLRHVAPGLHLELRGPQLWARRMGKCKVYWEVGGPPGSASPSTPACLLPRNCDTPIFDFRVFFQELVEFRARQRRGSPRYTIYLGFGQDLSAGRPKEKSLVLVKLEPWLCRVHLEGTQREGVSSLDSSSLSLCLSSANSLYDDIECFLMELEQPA
With `GCCTAGCACTTAGATTTCGACTTTCGGTTAGTGCTAGTCTTGATTCGCTTGACGCTGCTG` the log fluorescence was 3.4 z-score.
For `GCCTAGCACGGTCCTCTCTCTATTCAGAGGTGCTAGGTCTTGATTCGCTTGACGCTGCTG`, the log fluorescence was 1.08 z-score.
For `GCCTAGCACGACAAACTGAGTCTCGAGACGTGCTAGGTCTTGATTCGCTTGACGCTGCTG`, the log fluorescence was 0.651 z-score.

Further values, each from its own experiment
For `PhoQ, residues 284 288 289 292 302 303 AEGLLW`, the fold induction was 2.85 (PhoP, residues 12 14 15 18 19 NNFVT (Escherichia coli, UniProt P23836); Sort-seq, measured: YFP reporter; E. coli; PhoQ-PhoP variant library, with: 10 µM Mg2+; relative to: high Mg2+ state, higher = stronger signaling).

Some of these lines once more (block 3):
For `GCCTAGCACGACAAACTGAGTCTCGAGACGTGCTAGGTCTTGATTCGCTTGACGCTGCTG`, the log fluorescence was 0.651 z-score.
